# Published values gathered from unrelated publications.
# Several values in a cell are separate wells, animals, samples, runs or records. ± marks the error that the study gave.
# Cell line: MDA-MB-231
Compound,assay,setting,scale,quantity,value
CCCNC(=O)[C@H]1O[C@@H]1C(=O)N[C@H](C(=O)N1CCC[C@H]1C(=O)OCC1=C2C(C)=CC(C)=[N+]2[B-](CC)(CC)n2c(C)cc(C)c21)[C@@H](C)CC,"cell viability, MTT","concentration not given, 72 h, irradiated 15 min up to 470 nm",,EC50,> 50000 nM
CC(=O)[O][Pd][c]1ccccc1-n1nc(C)cc1C.CC(=O)[O][Pd][c]1ccccc1-n1nc(C)cc1C,annexin V/PI flow cytometry,"25 µM, 24 h",,late apoptotic cells,25.9 ± 0.72%
CC(C)c1ccc(N(C)c2ccc3c(c2)OCC[C@H]3CNc2cnccc2C(=O)O)cc1,"apoptosis, refers to: caspase-3/7",72 h,relative to: panobinostat,EC50,132 nM
CCCNC(=O)[C@H]1O[C@@H]1C(=O)N[C@H](C(=O)N1CCC[C@H]1C(=O)OCC1=C2C(C)=CC(C)=[N+]2[B-](C)(C)n2c(C)cc(C)c21)[C@@H](C)CC,MTT,"10 µM, 4 h, irradiated 460-470 nm, 5 min",relative to: DMSO,viability,< 10%
C[C@@H]1CC[C@@H]([C@@](O)(COCc2ccccc2)Cn2cnc3ccccc32)[C@H](OCc2ccccc2)C1,"cell growth or viability, MTT","10 µM, 72 h",,inhibition,30.8%
CN(C)CCN1CCN(c2ccc3nc(-c4ccc5nc(-c6ccc(C(F)(F)F)cc6)[nH]c5c4)[nH]c3c2)CC1,SRB,"10 µM, 48 h",,growth percent,63.1%
C[C@@H]1CC[C@@H]([C@@](O)(CNCc2cccc(F)c2)COCc2ccccc2)[C@H](OCc2ccccc2)C1,"cell growth or viability, MTT","30 µM, 72 h",,inhibition,97.1%
COc1ccccc1-c1ccncc1C(=O)Nc1nnc(OCc2ccc(Cl)cc2)s1,,0.1875 µM,,colony count,35 and 24.5
C[C@@H]1CC[C@@H]([C@](O)(CNCc2ccccc2F)COCc2ccccc2)[C@H](OCc2ccccc2)C1,"cell growth or viability, MTT","10 µM, 72 h",,inhibition,94.4%
CC(=O)OC[C@H]1O[C@@H](n2cc(CSc3nc4ccccc4n3Cc3cn([C@@H]4O[C@H](COC(C)=O)[C@@H](OC(C)=O)C(OC(C)=O)[C@H]4OC(C)=O)nn3)nn2)[C@H](OC(C)=O)C(OC(C)=O)[C@@H]1OC(C)=O (stereo in doubt),MTT,125 ppm,,cytotoxicity,92%
COc1ccccc1CNC[C@](O)(COCc1ccccc1)[C@@H]1CC[C@@H](C)C[C@H]1OCc1ccccc1,"cell growth or viability, MTT","30 µM, 72 h",,inhibition,96.8%
CCCNC(=O)[C@H]1O[C@@H]1C(=O)N[C@H](C(=O)N1CCC[C@H]1C(=O)OCC1=C2C(C)=CC(C)=[N+]2[B-](F)(F)n2c(C)cc(C)c21)[C@@H](C)CC,"cell viability, MTT","72 h, dark",,EC50,> 50000 nM
COc1c(C)c(OS(=O)(=O)c2ccccc2)c(C)c(O)c1C(=O)/C=C/c1ccccc1,,,relative to: CL over MDA-MB-231,selectivity index,1.11
Oc1ccnc(-c2cc(O)ccn2)c1.[Cl-].[Cl-].[Ru+2].c1ccc(-c2ccnc3c2ccc2c(-c4ccccc4)ccnc23)cc1.c1ccc(-c2ccnc3c2ccc2c(-c4ccccc4)ccnc23)cc1,CCK-8 viability,white light 2 h,,EC50,300 nM
Cc1nc2c(F)cc(-c3nc(Nc4ccc(CNC(=O)CCCC(=O)NO)cc4)ncc3F)cc2n1C(C)C,"cell growth or viability, CCK-8","0.3 µM, 48 h",,inhibition,77.8%
COc1cccc(CNC[C@](O)(COCc2ccccc2)[C@@H]2CC[C@@H](C)C[C@H]2OCc2ccccc2)c1,"cell growth or viability, MTT","10 µM, 72 h",,inhibition,96.5%
CC[C@H](C)/C=C/C=C/C=C/C(O)=C/C(=O)C(F)(Cl)Cl,wound healing,"1 µM, 24 h",relative to: DMSO,cell migration,90 ± 18%
